Assay results gathered from unrelated publications.
Parts stem from different laboratories: compare values within a part only.
UniProt Q9UHD2, sequence (whole entry, looked up): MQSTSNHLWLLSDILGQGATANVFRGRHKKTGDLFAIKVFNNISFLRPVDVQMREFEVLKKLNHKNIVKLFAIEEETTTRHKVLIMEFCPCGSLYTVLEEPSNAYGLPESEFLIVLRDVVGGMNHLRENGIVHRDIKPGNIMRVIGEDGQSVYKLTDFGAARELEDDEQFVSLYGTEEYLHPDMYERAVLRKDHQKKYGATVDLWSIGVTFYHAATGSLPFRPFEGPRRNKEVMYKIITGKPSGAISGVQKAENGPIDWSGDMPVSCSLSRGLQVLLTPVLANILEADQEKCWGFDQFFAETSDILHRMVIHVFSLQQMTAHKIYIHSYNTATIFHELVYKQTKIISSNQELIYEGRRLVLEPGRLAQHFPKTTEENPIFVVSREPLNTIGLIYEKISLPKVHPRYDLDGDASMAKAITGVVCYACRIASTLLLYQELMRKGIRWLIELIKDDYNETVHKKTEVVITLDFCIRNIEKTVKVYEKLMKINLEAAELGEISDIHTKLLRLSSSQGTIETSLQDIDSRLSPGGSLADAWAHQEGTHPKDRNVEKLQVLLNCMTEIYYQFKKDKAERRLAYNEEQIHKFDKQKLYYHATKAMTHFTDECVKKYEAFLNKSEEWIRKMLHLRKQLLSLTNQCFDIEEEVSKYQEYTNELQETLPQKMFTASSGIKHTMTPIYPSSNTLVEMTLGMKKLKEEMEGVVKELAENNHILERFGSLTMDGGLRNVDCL
UniProt O76039, sequence (whole entry, looked up): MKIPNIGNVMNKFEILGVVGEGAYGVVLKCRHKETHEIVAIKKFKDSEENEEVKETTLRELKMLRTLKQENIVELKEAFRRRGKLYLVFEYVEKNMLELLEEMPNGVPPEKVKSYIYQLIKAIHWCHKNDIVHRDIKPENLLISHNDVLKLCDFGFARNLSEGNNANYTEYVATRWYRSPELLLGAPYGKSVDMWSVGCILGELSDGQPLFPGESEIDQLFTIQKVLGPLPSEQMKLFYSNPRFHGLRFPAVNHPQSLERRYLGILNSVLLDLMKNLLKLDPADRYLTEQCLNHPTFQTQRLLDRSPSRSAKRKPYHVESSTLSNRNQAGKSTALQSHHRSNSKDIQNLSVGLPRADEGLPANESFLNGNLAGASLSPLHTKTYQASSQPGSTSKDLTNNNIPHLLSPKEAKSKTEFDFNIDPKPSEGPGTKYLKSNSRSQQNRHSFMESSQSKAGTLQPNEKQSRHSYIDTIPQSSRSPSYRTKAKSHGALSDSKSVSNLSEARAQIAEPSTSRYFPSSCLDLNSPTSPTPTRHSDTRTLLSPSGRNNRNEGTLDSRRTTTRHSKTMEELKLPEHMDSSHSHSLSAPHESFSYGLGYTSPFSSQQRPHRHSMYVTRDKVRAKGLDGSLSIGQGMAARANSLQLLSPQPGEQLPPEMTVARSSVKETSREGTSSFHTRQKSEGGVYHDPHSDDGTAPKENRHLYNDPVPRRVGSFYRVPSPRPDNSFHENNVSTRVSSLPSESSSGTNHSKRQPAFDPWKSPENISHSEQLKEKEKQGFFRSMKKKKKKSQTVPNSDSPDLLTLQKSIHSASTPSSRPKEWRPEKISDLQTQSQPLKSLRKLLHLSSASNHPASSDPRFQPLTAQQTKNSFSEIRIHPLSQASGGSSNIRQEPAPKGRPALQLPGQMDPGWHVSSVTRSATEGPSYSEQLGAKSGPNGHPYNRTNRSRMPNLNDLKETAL
UniProt P48729, sequence (whole entry, looked up): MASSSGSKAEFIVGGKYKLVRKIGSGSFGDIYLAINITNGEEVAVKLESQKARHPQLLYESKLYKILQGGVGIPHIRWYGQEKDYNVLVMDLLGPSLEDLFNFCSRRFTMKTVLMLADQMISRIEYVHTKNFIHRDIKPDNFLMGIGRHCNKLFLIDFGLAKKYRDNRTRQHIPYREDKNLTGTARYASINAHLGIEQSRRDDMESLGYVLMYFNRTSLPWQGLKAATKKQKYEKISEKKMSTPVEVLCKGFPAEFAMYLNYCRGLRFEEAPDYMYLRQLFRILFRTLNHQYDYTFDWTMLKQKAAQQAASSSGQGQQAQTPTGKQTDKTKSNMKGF
UniProt P22455, sequence (whole entry, looked up): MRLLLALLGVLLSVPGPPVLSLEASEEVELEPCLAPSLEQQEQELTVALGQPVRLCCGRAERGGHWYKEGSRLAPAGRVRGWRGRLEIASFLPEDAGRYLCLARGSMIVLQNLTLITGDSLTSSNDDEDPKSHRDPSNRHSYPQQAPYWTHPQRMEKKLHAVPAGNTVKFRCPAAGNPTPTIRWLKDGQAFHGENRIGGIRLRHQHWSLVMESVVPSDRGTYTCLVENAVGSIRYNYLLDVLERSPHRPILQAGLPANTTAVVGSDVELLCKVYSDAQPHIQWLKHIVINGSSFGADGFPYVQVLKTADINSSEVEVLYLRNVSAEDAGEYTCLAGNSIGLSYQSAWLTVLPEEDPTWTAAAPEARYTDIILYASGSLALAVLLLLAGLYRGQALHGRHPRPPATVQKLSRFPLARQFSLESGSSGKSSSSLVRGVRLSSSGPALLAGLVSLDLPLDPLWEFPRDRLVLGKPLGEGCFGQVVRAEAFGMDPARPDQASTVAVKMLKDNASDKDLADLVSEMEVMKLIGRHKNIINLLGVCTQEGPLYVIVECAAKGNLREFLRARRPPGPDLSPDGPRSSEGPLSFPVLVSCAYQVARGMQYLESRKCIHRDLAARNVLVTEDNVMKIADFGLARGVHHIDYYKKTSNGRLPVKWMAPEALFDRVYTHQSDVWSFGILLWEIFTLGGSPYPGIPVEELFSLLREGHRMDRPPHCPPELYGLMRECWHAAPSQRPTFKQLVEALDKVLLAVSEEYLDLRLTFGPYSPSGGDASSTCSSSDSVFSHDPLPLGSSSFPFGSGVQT
UniProt P10721, sequence (whole entry, unmodified, looked up): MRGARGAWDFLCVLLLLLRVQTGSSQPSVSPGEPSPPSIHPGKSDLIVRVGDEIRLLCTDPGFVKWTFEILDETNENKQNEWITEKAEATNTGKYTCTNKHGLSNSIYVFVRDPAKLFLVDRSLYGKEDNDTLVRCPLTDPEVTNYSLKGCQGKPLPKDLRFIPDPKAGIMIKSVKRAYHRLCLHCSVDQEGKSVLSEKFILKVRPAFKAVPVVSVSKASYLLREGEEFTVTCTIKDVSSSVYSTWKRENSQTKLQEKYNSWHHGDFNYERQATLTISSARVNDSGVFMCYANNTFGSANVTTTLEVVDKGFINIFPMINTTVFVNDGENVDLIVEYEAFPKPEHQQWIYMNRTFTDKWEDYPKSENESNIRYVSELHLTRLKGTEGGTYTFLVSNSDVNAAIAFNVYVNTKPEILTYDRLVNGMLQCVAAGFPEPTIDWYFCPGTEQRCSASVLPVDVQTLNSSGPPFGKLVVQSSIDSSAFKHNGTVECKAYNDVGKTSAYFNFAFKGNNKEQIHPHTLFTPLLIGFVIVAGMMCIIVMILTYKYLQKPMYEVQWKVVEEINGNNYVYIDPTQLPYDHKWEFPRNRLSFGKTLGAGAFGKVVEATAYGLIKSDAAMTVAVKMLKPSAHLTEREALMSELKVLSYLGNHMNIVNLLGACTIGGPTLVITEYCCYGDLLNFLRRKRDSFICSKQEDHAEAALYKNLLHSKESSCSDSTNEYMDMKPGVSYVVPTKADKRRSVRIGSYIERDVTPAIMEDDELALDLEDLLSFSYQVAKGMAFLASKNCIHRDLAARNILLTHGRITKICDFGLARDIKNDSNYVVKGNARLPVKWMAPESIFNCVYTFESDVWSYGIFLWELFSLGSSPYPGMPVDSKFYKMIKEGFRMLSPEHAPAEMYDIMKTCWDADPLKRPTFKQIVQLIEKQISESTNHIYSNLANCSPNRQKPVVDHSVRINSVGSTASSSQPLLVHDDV
UniProt Q13188, sequence (whole entry, looked up): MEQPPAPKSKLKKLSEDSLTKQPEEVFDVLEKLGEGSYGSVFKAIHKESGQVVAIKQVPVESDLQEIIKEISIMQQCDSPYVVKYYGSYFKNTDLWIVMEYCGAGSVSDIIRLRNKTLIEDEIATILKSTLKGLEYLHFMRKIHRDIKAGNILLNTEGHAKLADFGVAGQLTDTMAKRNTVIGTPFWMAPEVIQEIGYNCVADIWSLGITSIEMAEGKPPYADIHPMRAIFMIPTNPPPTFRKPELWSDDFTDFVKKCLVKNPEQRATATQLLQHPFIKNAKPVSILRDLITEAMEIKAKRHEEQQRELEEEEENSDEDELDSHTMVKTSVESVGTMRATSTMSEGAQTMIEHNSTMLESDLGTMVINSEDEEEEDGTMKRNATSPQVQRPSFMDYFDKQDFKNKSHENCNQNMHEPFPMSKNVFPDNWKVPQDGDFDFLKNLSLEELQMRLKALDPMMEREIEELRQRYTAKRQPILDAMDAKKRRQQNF
UniProt P27361, sequence (whole entry, looked up): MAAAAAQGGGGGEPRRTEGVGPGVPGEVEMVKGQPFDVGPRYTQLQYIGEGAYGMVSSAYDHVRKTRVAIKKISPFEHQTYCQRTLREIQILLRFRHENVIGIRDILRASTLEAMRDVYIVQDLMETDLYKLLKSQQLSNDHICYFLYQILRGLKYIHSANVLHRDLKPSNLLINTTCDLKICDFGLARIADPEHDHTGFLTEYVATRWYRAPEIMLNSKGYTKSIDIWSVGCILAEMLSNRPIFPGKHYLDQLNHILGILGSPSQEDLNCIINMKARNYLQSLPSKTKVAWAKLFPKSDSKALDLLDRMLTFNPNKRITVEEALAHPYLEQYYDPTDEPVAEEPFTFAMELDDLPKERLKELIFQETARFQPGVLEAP
UniProt Q9HC98, sequence (whole entry, looked up): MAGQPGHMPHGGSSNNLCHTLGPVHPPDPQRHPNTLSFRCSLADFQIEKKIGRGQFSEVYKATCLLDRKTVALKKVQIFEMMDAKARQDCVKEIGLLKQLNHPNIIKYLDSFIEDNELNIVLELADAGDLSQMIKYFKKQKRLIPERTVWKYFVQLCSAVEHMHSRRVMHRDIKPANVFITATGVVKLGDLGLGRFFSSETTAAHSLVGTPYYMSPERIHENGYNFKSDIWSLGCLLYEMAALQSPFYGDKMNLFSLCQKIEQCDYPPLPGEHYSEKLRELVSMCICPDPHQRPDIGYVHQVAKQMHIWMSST

Block 1
Target: Hepatocyte nuclear factor 3-beta, forkhead domain (FOXA2, Homo sapiens, UniProt Q9Y261, residues 142-269)
Method: protein-binding microarray
Molecule type: double-stranded DNA, one strand shown
Sample: in vitro
Concentration: not given
Setting: k-mer, scored over probes, only values ≥0.25
Reading: higher = stronger binding
Quantity: E-score
Target sequence (chain): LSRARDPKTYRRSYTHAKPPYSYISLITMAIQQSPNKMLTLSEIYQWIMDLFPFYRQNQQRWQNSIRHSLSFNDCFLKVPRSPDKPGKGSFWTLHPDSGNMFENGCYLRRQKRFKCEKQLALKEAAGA
AACATCAC: 0.317
ACTATATC: 0.364
ACATATTG: 0.258
CATAGCAC: 0.251
AAAATACA: 0.294
ATGTGATA: 0.36
ATGTATAA: 0.311
TATGATAA: 0.295

Block 2
Compound: O=C(Nc1cnc(Oc2ccc(F)cc2)nc1)N1CCc2ncccc2[C@@H]1c1ccc(F)cc1
Effect on: cell-free assay
Method: competition with immobilised ligand
Concentration: 1 µM
Quantity: remaining binding
RAF1 (Homo sapiens, UniProt P04049): 100%
STK3 (Homo sapiens, UniProt Q13188): 100%
PIK3CD (Homo sapiens, UniProt O00329): 100%
CSNK1A1 (Homo sapiens, UniProt P48729): 85%
ERBB3 (Homo sapiens, UniProt P21860): 100%
Ribosomal protein S6 kinase alpha-4, C-terminal kinase domain (RPS6KA4, Homo sapiens, UniProt O75676): 89%
FGFR4 (Homo sapiens, UniProt P22455): 98%
CDKL5 (Homo sapiens, UniProt O76039): 89%
KIT (Homo sapiens, UniProt P10721, D816V): 98%
TNK1 (Homo sapiens, UniProt Q13470): 97%

Block 3
Compound: O=C1Nc2ccc(Br)cc2/C1=C/c1cc2c([nH]1)CCCC2
Effect on: enzyme activity
Action: inhibitor
Concentration: 0.5 µM
Reference: control
Quantity: remaining activity
MAP3K14 (Homo sapiens, UniProt Q99558): 112%
NEK6 (Homo sapiens, UniProt Q9HC98): 103%
TBK1 (Homo sapiens, UniProt Q9UHD2): 66.9%
MAPK3 (Homo sapiens, UniProt P27361): 95%

Block 4
Target: TAR DNA-binding protein 43, full length, His tag (TARDBP, Homo sapiens, UniProt Q13148, residues 1-414)
Method: RNA Bind-n-Seq
Molecule type: RNA
Sample: in vitro
Concentration: 20 nM
Setting: 6-mer, flanks averaged, single round
Together with: 150 mM LiCl
Reference: input library
Reading: higher = stronger binding
Quantity: 6-mer enrichment (R)
CCCAUU: 1.09
AGUAUG: 1.34
UCGGUU: 0.975
GUCCAG: 0.938
UAUGAG: 1.19
GAUCAC: 0.822
AGACUC: 0.853
UCGCCA: 0.861

For quick reference, copied from above (block 4):
AGACUC: 0.853
UCGCCA: 0.861
